Published values collected from several papers.
Protocols differ between the studies behind these lines. Numbers after ± are the reported error. Ends that are not written are not given here.
B1: BMP7 mature (UniProt P18075); sequence looked up; chain STGSKQRSQNRSKTPKNQEALRMANVAENSSSDQRQACKKHELYVSFRDLGWQDWIIAPEGYAAYYCEGECAFPLNSYMNATNHAIVQTLVHFINPETVPKPCCAPTQLNAISVLYFDDSSNVILKKYRNMVVRACGCH
B2: gpsB (Bacillus subtilis, UniProt P0CI74); chain MLADKVKLSAKEILEKEFKTGVRGYKQEDVDKFLDMIIKDYETFHQEIEELQQENLQLKKQLEEASKKQPVQSNTTNFDILKRLSNLEKHVFGSKLYD
B3: EPB41 210-507 (Homo sapiens, UniProt P11171); sequence looked up; chain MHCKVSLLDDTVYECVVEKHAKGQDLLKRVCEHLNLLEEDYFGLAIWDNATSKTWLDSAKEIKKQVRGVPWNFTFNVKFYPPDPAQLTEDITRYYLCLQLRQDIVAGRLPCSFATLALLGSYTIQSELGDYDPELHGVDYVSDFKLAPNQTKELEEKVMELHKSYRSMTPAQADLEFLENAKKLSMYGVDLHKAKDLEGVDIILGVCSSGLLVYKDKLRINRFPWPKVLKISYKRSSFFIKIRPGEQEQYESTIGFKLPSYRAAKKLWKVCVEHHTFFRLTSTDTIPKSKFLALGSKF
B4: KLRK1 90-216 (Homo sapiens, UniProt P26718); chain PLTESYCGPCPKNWICYKNNCYQFFDESKNWYESQASCMSQNASLLKVYSKEDQDLLKLVKSYHWMGLVHIPTNGSWQWEDGSILSPNLLTIIEMQKGDCALYASSFKGYIENCSTPNTYICMQRTV
B5: mmoB core del2-33/D36C (Methylococcus capsulatus, UniProt P18797); IAEDANS label; sequence looked up; chain MESCTVVLVLKKSDEINTFIEEILLTDYKKNVNPTVNVEDRAGYWWIKANGKIEVDCDEISELLGRQFNVYDFLVDVSSTIGRAYTLGNKFTITSELMGLDRKLEDYHA
B6: enzyme (Bacillus pumilus, UniProt A8FFI9); chain EARSIAWSVDEFFKNREGTFVIQEVKEKSPWVYNKKRAKERFAPQSTFKVANALIGLQTGAVRDEYDIKYWDGVKREIDNWNRDHTLGSGMRDSVVWYYQAMARDIGEERMNHWVKAIHYGNKDISGGIDQFWLSSTLRISPIEQVRFLKQLYEETLPFDLKNMRTVKRMMVQEEEKHATLYGKTGSGSDIGWYVGFIKHEHKTYILATNIKGTGIEAKDITYRILKKYHLMEASV
B7: GABBR2 42-466 (Homo sapiens, UniProt O75899); sequence looked up; chain WARGAPRPPPSSPPLSIMGLMPLTKEVAKGSIGRGVLPAVELAIEQIRNESLLRPYFLDLRLYDTECDNAKGLKAFYDAIKYGPNHLMVFGGVCPSVTSIIAESLQGWNLVQLSFAATTPVLADKKKYPYFFRTVPSDNAVNPAILKLLKHYQWKRVGTLTQDVQRFSEVRNDLTGVLYGEDIEISDTESFSNDPCTSVKKLKGNDVRIILGQFDQNMAAKVFCCAYEENMYGSKYQWIIPGWYEPSWWEQVHTEANSSRCLRKNLLAAMEGYIGVDFEPLSSKQIKTISGKTPQQYEREYNNKRSGVGPSKFHGYAYDGIWVIAKTLQRAMETLHASSRHQRIQDFNYTDHTLGRIILNAMNETNFFGVTGQVVFRNGERMGTIKFTQFQDSREVKVGEYNAVADTLEIINDTIRFQGSEPPKD
B8: RAD30 (Saccharomyces cerevisiae, UniProt Q04049); sequence looked up; chain MSKFTWKELIQLGSPSKAYESSLACIAHIDMNAFFAQVEQMRCGLSKEDPVVCVQWNSIIAVSYAARKYGISRMDTIQEALKKCSNLIPIHTAVFKKGEDFWQYHDGCGSWVQDPAKQISVEDHKVSLEPYRRESRKALKIFKSACDLVERASIDEVFLDLGRICFNMLMFDNEYELTGDLKLKDALSNIREAFIGGNYDINSHLPLIPEKIKSLKFEGDVFNPEGRDLITDWDDVILALGSQVCKGIRDSIKDILGYTTSCGLSSTKNVCKLASNYKKPDAQTIVKNDCLLDFLDCGKFEITSFWTLGGVLGKELIDVLDLPHENSIKHIRETWPDNAGQLKEFLDAKVKQSDYDRSTSNIDPLKTADLAEKLFKLSRGRYGLPLSSRPVVKSMMSNKNLRGKSCNSIVDCISWLEVFCAELTSRIQDLEQEYNKIVIPRTVSISLKTKSYEVYRKSGPVAYKGINFQSHELLKVGIKFVTDLDIKGKNKSYYPLTKLSMTITNFDIIDLQKTVVDMFGNQVHTFKSSAGKEDEEKTTSSKADEKTPKLECCKYQVTFTDQKALQEHADYHLALKLSEGLNGAEESSKNLSFGEKRLLFSRKRPNSQHTATPQKKQVTSSKNILSFFTRKK
B9: adrenodoxin (Bos taurus, UniProt P00257); RED dye on amines; sequence looked up; chain SSSEDKITVHFINRDGETLTTKGKIGDSLLDVVVQNNLDIDGFGACEGTLACSTCHLIFEQHIFEKLEAITDEENDMLDLAYGLTDRSRLGCQICLTKAMDNMTVRVPDAVSDARESIDMGMNSSKIE
B10: UGT1A9 (Homo sapiens, UniProt O60656); chain GKLLVVPMDGSHWFTMRSVVEKLILRGHEVVVVMPEVSWQLGRSLNCTVKTYSTSYTLEDLDREFKAFAHAQWKAQVRSIYSLLMGSYNDIFDLFFSNCRSLFKDKKLVEYLKESSFDAVFLDPFDNCGLIVAKYFSLPSVVFARGILCHYLEEGAQCPAPLSYVPRILLGFSDAMTFKERVRNHIMHLEEHLLCHRFFKNALEIASEILQTPVTEYDLYSHTSIWLLRTDFVLDYPKPVMPNMIFIGGINCHQGKPLPMEFEAYINASGEHGIVVFSLGSMVSEIPEKKAMAIADALGKIPQTVLWRYTGTRPSNLANNTILVKWLPQNDLLGHPMTRAFITHAGSHGVYESICNGVPMVMMPLFGDQMDNAKRMETKGAGVTLNVLEMTSEDLENALKAVINDKSYKENIMRLSSLHKDRPVEPLDLAVFWVEFVMRHKGAPHLRPAAHDLTWYQYHSLDVIGFLLAVVLTVAFITFKCCAYGYRKCLGKKGRVKKAHKSKTH
Sequence of UniProt P23458 (whole entry, looked up): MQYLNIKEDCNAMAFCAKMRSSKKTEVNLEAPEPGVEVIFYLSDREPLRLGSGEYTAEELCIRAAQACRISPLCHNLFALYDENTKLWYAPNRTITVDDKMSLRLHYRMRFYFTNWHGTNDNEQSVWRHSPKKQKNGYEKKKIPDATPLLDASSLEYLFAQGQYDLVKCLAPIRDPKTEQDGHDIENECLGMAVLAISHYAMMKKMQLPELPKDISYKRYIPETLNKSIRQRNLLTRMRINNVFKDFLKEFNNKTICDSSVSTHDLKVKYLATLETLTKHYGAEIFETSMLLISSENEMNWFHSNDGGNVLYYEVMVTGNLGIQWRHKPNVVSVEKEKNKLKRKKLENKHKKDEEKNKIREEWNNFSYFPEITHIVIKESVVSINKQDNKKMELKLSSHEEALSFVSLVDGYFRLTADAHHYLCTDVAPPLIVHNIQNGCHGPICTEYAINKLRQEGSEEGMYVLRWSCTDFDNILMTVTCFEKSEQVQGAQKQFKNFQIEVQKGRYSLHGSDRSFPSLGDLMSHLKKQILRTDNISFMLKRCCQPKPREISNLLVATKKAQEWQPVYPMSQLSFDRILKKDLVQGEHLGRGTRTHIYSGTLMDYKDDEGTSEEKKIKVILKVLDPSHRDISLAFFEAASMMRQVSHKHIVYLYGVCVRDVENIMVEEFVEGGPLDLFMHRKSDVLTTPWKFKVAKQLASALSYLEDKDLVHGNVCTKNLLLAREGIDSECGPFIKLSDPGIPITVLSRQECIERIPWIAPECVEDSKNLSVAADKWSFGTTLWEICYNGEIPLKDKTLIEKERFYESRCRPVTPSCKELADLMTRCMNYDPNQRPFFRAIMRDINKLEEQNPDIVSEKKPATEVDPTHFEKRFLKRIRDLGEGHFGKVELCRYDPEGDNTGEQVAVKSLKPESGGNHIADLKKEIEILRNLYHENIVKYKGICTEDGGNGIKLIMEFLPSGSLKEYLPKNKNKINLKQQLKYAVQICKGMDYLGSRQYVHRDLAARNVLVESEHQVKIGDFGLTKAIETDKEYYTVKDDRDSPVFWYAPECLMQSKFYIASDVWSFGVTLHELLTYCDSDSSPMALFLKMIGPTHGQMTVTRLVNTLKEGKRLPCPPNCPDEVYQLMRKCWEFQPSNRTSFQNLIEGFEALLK
Sequence of UniProt Q9NZ08 (whole entry, unmodified, looked up): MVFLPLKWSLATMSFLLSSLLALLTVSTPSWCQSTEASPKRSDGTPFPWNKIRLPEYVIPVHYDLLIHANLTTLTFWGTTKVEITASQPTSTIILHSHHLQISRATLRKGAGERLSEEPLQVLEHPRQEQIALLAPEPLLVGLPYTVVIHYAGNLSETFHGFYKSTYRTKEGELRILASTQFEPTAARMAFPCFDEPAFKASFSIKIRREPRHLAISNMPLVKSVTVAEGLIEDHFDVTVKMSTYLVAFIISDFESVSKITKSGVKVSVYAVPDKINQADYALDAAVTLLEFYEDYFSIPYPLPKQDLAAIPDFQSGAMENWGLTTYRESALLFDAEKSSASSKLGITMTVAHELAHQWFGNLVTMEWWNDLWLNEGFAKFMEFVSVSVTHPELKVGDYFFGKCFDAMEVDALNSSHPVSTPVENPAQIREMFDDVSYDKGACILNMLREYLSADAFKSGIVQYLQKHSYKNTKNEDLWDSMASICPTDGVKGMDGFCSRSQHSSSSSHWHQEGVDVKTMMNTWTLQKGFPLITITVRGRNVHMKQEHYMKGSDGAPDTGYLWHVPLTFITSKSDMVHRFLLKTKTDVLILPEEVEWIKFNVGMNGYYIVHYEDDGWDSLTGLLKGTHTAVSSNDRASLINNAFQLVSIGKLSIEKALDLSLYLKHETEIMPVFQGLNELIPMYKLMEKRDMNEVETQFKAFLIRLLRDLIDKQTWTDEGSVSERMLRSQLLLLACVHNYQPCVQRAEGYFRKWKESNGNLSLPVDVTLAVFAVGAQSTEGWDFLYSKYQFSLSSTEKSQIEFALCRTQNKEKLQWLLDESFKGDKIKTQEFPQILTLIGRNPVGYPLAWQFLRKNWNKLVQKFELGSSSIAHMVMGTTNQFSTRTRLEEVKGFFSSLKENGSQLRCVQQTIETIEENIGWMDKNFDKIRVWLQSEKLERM
Sequence of UniProt Q4G0S4 (whole entry, looked up): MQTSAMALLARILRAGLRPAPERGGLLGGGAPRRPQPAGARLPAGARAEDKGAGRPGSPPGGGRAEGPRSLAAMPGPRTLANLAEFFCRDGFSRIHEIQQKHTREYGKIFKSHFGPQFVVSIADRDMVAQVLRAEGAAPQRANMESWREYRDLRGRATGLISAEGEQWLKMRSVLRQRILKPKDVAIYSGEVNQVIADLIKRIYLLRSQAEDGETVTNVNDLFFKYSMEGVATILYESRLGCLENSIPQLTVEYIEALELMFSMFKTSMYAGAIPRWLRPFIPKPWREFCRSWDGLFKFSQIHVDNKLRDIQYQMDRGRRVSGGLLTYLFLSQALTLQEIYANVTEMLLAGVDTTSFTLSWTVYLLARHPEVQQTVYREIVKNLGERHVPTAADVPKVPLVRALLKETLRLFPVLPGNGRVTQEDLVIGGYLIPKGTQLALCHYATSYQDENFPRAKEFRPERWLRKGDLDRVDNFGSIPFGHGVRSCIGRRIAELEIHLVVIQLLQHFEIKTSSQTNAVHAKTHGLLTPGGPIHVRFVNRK
Sequence of UniProt Q29983 (whole entry, looked up): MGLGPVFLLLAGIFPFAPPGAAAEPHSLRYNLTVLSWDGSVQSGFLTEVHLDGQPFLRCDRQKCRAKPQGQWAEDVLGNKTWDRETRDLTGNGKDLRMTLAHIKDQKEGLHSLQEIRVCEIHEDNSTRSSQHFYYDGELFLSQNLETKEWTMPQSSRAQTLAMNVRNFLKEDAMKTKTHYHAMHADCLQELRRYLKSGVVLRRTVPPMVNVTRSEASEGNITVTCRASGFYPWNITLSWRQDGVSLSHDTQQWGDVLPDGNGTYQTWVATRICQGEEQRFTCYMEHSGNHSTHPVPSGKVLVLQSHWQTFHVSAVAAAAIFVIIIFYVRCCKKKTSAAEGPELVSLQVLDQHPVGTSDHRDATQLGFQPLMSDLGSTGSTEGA
Sequence of UniProt P12689 (whole entry, looked up): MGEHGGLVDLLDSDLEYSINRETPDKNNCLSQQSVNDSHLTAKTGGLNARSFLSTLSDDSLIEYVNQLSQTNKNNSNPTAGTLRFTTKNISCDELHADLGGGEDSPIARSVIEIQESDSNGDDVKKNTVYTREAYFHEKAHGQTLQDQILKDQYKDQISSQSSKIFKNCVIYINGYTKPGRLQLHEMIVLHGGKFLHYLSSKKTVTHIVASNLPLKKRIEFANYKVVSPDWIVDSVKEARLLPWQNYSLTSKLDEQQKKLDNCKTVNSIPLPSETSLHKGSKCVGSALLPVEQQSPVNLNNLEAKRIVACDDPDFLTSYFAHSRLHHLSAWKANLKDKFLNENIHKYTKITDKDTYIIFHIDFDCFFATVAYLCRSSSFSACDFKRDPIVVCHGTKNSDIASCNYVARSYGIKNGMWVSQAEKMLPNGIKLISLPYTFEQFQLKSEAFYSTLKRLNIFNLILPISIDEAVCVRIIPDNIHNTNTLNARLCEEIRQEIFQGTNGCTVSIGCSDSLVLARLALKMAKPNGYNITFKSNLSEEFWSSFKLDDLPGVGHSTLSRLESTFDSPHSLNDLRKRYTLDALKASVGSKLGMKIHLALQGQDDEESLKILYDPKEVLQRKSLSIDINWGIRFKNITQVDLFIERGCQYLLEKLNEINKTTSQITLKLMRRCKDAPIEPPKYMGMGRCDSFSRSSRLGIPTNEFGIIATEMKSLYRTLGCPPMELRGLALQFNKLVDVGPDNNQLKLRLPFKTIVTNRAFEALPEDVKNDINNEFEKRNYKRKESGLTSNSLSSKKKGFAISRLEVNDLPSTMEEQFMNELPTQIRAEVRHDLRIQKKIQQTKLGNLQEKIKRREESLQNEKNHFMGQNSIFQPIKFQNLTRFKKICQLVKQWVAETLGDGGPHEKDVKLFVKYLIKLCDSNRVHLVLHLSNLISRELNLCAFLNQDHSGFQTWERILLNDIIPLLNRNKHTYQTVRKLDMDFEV

With `B1 (BMP7 mature)` the Kd was 0.107 ± 0.0059 µM (Grem2 22-168, glutathionylated (Mus musculus, UniProt O88273); SPR; pH 7.5, 25 °C, NaCl 500 mM, apparent, steady-state).
`IINFEKL` has a Vmax of 107 ± 1 nmol/min/µg (ERAP1 (Homo sapiens, UniProt Q9NZ08, V737R); L-AMC hydrolysis, activator; peptide; 100 µM, 5 min, pH 8.0, 27 °C, mutant V737R, added: L-AMC varied from 0 µM).
For `B2 (gpsB)`, the Kd was 48 ± 2 µM (ftsZ, FITC label (Bacillus subtilis, UniProt P17865); fluorescence titration).
With `B3 (EPB41 210-507)` the Kd was 0.07 ± 0.003 µM (MPP1 (Homo sapiens, UniProt Q00013); SPR; 50-400 nM, pH 7.4, 25 °C).
`KCNTATCATQRLANFLVHSSNNFGPILPPTNVGSNTY (Pramlintide; not fully specified (C-terminus, bridges); cysteine pairing not given here; sequence looked up)` — result for “injection site adverse events”: 44.6% (peptide, obese or overweight humans; dose not given).
The Kd of `B4 (KLRK1 90-216)` is reported as 0.103 µM (MICA 24-297, Alexa Fluor 647 on Cys273 (Homo sapiens, UniProt Q29983); FRET or BRET).
`B5 (mmoB core del2-33/D36C)` has a Kd of 2.67 µM (mmoX/mmoY/mmoZ hydroxylase (Methylococcus capsulatus); fluorescence polarisation).
`B6 (enzyme)` has a kcat of 0.26 ± 0.02 s⁻¹ (C[C@@H](O)[C@H]1C(=O)N2C(C(=O)O)=C(SCCN=CN)C[C@H]12; steady-state kinetics; pH 7).
`RLGRDKYKTLRQIRQ (LRRKtide residues 550-564)` gave a Kd of 29 µM (Lrrk2 (Mus musculus, UniProt Q5S006); steady-state kinetics; peptide; pH 7.4, NaCl 50 mM, added: ATP).
`B7 (GABBR2 42-466)` has a Kd of 0.0249 µM (GABBR1 30-459 (Homo sapiens, UniProt Q9UBS5-2); ITC; 15 °C, one-site fit).
With `SIIVFEKL` the IFN-gamma+ cells was 71% (OT-I CD8+ T cells; peptide; concentration not given, primed 5 d, OVA257 100 ng/mL restimulation, added: no TGF-beta1).
The Kd of `B8 (RAD30)` is reported as 0.0045 µM (REV1, Cy5 label (Saccharomyces cerevisiae, UniProt P12689); single-molecule TIRF; calculated from kon, koff).
For `KTLMGNPWFQRAKMPRALDFS (IFNLR1 250-270 (Homo sapiens, UniProt Q8IU57); sequence looked up)`, the Kd was 1.23 µM (JAK1 35-559 (Homo sapiens, UniProt P23458); BLI; peptide; apparent, effective Kd).
`B9 (adrenodoxin)` gave a Kd of 0.03 µM (CYP27C1 81-542 (Homo sapiens, UniProt Q4G0S4); MST; pH 7.4, 25 °C, oxidized, single-site model).
With `B10 (UGT1A9)` the Vmax/Km was 73000 µL/min/mg (COc1ccc2oc(-c3ccccc3)c(O)c(=O)c2c1; steady-state kinetics; pH 7.4, 37 °C).

Some of these lines once more:
`B9 (adrenodoxin)` gave a Kd of 0.03 µM (CYP27C1 81-542 (Homo sapiens, UniProt Q4G0S4); MST; pH 7.4, 25 °C, oxidized, single-site model).
With `B10 (UGT1A9)` the Vmax/Km was 73000 µL/min/mg (COc1ccc2oc(-c3ccccc3)c(O)c(=O)c2c1; steady-state kinetics; pH 7.4, 37 °C).
